Experimental data from different studies.
Every numbered part comes from another study and shows a few of its results, in no order. Several values in a cell are separate wells, animals, samples, runs or records.
Chain of UniProt P45985 (whole entry, looked up): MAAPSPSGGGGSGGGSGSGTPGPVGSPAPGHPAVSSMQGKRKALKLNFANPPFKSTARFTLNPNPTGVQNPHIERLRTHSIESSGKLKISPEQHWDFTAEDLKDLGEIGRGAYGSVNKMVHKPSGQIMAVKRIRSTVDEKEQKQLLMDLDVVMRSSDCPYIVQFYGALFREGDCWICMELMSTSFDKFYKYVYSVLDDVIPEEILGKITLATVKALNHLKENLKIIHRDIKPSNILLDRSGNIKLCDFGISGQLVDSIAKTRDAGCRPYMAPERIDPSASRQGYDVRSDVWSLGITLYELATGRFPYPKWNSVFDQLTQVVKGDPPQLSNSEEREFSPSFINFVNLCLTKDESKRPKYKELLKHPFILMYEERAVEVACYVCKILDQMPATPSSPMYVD
Chain of UniProt P27448 (whole entry, looked up): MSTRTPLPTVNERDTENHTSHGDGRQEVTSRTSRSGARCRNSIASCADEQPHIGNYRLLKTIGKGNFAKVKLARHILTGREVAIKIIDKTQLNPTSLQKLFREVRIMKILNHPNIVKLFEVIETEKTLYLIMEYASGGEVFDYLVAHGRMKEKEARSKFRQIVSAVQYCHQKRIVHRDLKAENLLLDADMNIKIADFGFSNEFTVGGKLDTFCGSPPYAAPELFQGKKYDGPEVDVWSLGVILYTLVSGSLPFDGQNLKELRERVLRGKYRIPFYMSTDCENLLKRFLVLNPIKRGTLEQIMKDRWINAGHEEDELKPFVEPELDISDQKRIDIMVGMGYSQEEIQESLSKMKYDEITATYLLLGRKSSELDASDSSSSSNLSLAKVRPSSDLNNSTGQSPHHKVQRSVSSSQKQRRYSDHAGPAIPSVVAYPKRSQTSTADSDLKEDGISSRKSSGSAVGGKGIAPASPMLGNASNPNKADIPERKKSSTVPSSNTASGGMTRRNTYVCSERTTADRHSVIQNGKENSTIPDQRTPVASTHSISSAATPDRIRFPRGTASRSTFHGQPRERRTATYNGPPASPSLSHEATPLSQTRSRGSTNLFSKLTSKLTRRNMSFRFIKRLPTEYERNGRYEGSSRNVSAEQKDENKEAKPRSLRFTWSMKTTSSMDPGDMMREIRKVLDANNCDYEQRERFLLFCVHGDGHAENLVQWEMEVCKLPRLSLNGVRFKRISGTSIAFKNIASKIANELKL
Chain of UniProt P06241 (whole entry, looked up): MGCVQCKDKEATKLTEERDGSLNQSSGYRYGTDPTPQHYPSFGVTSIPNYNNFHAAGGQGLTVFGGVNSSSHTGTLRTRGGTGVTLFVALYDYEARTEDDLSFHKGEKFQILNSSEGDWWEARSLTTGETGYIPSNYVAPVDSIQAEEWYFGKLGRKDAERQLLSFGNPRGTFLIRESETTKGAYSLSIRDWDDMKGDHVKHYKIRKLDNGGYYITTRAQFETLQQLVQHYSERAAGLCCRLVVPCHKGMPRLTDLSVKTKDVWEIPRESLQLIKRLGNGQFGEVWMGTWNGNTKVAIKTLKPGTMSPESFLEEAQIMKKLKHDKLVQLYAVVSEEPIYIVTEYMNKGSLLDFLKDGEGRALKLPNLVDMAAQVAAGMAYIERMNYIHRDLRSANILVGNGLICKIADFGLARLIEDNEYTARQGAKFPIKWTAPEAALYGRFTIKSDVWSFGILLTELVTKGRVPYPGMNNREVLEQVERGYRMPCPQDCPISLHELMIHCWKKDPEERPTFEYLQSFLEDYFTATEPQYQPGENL
Chain of UniProt Q9UM73 (whole entry, looked up): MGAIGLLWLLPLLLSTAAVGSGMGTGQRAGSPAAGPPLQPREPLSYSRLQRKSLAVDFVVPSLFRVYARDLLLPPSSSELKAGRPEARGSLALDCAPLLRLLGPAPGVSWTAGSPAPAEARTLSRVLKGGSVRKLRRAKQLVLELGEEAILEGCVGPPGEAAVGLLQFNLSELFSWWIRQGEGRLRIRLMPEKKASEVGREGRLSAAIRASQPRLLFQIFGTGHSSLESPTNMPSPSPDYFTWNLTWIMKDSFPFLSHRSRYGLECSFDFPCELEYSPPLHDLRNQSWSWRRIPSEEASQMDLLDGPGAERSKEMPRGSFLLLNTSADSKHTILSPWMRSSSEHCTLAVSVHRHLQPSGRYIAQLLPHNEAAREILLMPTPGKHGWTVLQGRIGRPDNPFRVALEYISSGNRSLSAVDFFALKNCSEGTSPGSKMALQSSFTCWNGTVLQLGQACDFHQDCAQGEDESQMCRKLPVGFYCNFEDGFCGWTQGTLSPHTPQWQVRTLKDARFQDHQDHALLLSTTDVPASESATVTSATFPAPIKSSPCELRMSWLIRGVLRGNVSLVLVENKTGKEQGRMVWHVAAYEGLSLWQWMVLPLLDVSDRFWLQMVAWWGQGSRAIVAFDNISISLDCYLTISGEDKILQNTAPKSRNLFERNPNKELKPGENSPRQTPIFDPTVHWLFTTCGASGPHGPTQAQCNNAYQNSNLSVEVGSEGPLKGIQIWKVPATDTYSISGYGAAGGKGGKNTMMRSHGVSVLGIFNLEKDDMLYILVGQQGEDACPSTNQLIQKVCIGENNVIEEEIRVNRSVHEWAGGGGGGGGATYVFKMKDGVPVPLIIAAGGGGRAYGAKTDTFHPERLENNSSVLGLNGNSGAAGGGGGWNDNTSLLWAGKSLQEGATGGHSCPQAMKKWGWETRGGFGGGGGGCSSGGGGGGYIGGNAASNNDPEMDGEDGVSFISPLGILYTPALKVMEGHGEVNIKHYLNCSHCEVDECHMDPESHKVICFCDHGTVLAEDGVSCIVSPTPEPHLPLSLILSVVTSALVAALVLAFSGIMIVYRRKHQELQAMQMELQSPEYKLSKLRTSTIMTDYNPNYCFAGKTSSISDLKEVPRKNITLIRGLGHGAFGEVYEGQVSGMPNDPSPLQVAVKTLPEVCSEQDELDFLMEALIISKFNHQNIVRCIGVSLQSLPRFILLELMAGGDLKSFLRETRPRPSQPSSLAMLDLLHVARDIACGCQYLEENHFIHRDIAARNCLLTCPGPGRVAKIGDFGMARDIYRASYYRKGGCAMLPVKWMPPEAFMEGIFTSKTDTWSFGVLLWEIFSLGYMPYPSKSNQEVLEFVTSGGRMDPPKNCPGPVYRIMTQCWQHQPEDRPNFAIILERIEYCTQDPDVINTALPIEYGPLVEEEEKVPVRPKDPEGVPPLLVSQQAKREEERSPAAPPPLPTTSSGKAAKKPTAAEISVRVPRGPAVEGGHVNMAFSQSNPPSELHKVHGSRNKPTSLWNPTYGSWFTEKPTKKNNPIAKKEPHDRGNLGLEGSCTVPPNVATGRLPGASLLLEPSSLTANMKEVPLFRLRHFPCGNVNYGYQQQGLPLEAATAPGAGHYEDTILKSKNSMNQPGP
Chain of UniProt Q86YV6 (whole entry, looked up): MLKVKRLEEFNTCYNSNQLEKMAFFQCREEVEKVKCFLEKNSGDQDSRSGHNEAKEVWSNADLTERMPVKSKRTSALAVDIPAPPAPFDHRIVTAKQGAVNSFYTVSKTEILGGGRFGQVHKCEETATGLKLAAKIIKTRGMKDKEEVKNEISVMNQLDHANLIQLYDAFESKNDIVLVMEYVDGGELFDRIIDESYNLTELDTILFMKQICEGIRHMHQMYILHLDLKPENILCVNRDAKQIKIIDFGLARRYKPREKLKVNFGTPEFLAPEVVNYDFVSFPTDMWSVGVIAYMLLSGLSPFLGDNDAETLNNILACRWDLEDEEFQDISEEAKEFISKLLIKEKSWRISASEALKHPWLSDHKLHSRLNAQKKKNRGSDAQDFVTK

Series 1 — observed: enzyme activity; action: inhibitor; concentration: 10 µM; endpoint: inhibition
Target: Calcium/calmodulin-dependent protein kinase type II subunit alpha (CAMK2A, Homo sapiens, UniProt Q9UQM7)
Chain of UniProt Q9UQM7 (whole entry, looked up): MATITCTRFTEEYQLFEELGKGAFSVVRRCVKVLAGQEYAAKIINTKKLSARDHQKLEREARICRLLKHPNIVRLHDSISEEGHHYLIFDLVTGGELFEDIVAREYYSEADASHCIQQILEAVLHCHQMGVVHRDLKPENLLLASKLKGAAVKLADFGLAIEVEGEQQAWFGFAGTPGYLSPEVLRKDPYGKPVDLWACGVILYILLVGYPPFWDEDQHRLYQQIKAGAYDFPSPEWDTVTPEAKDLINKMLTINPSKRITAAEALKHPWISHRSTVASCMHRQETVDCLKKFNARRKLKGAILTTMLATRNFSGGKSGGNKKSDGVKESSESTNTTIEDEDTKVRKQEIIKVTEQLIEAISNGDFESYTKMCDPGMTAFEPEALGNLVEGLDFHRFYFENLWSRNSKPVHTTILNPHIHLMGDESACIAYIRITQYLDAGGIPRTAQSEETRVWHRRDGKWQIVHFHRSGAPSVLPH
COCC(=O)Nc1c(I)c(C(=O)NCC(O)CO)c(I)c(C(=O)N(C)CC(O)CO)c1I (mixture of isomers): -4%
CC(=O)c1c(O)c(C)c(O)c2c1OC1=CC(=O)C(C(C)=O)C(=O)C12C (centres unmarked): -13%
NC(=O)N1c2ccccc2C=Cc2ccccc21: -5%
CC(C)C[C@H](NC(=O)[C@H](Cc1ccccc1)NC(=O)c1cnccn1)B(O)O: -1%
Cc1cn([C@H]2O[C@@H](CO)[C@H](O)[C@H]2F)c(=O)[nH]c1=O: -1%
CCOC(=O)[C@H](CCc1ccccc1)N[C@@H](C)C(=O)N1Cc2ccccc2C[C@H]1C(=O)O: 13%
CCCCCCCCCC(=O)OCCN1CCN(CCCN2c3ccccc3Sc3ccc(C(F)(F)F)cc32)CC1: -13%
CC1=C(C/C=C(\C)CCCC(C)CCCC(C)CCCC(C)C)C(=O)c2ccccc2C1=O (centres unmarked): 2%
COc1cc(-c2oc3cc(O[C@@H]4O[C@H](CO)[C@@H](O)[C@H](O)[C@H]4O)cc(O)c3c(=O)c2O)ccc1O: -31%
COc1cc(O)cc(O)c1C(=O)/C=C/c1ccccc1: -2%
COc1cc(-c2coc3c([C@@H]4O[C@H](CO)[C@@H](O)[C@H](O)[C@H]4O)c(O)ccc3c2=O)ccc1O: 5%

Series 2 — observed: enzyme activity; action: inhibitor; concentration: 0.5 µM; relative to: control; endpoint: remaining activity
Target: Cytoplasmic tyrosine-protein kinase BMX (BMX, Homo sapiens, UniProt P51813)
Chain of UniProt P51813 (whole entry, looked up): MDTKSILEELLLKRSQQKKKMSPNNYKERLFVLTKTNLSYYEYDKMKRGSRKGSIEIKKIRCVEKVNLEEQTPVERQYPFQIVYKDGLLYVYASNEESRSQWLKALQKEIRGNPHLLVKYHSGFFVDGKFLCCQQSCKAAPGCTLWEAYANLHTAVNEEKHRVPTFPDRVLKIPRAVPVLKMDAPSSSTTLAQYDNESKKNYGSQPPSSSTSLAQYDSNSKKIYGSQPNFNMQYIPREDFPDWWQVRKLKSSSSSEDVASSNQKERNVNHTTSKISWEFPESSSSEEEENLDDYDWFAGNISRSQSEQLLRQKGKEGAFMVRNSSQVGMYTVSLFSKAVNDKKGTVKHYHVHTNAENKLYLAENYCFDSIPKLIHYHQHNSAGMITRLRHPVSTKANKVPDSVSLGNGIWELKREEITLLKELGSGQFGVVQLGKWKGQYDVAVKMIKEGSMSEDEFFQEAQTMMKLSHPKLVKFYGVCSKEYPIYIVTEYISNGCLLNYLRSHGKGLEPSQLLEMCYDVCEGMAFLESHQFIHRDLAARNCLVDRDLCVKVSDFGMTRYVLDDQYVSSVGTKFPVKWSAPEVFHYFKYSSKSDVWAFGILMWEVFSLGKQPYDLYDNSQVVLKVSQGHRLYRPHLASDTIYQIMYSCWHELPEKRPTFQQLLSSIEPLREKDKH
CC(=O)c1ccc(N2CCOCC2)cc1O: 90.6%
CCc1[nH]c(-c2ccc(OC)cc2)nc1-c1ccncc1: 93.4%
O=C1NC(=O)C(c2c[nH]c3ccccc23)=C1c1c[nH]c2ccccc12: 100%
Cc1cncc2cccc(S(=O)(=O)N3CCCN(C(=O)CN)C[C@@H]3C)c12: 94%
COc1ccc(S(=O)(=O)N(CCO)c2ccccc2CN(C)CC=Cc2ccc(Cl)cc2)cc1: 101%
CC(C)(C)n1nc(Cc2cccc3ccccc23)c2c(N)ncnc21: 25.2%
O=S(=O)(NCCNC/C=C/c1ccc(Br)cc1)c1cccc2cnccc12: 102%
O=C1Cc2c([nH]c3ccc([N+](=O)[O-])cc23)-c2ccccc2N1: 110%
NC(=O)c1ccc(N(C(N)=O)c2c(F)cccc2F)nc1-c1ccc(F)cc1F: 108%
CCCC(=O)Oc1ccc2[nH]c(C(=O)c3cc4ccccc4[nH]3)cc2c1: 97.4%
CSc1nc(-c2ccnc(N[C@@H](C)c3ccccc3)c2)c(-c2ccc(F)cc2)[nH]1 (racemic): 102%
CC#CC(=O)Nc1cc2c(Nc3ccc(F)c(Cl)c3)ncnc2cn1: 2.54%
Cc1cc(Nc2nc(-c3ccccc3)nc3ccccc23)n[nH]1: 41.1%
Nc1ncnc2c1cnn2-c1ccccc1: 96.8%
CC[n+]1c(/C=C/N(C)c2ccccc2)n(-c2ccccc2)c2ccc(-c3nc4ccccc4s3)cc21: 108%
Cc1ccc(NC2=CC(=O)c3sc(C)nc3C2=O)cc1: 100%
N#CC(=C(N)Sc1ccc(N)cc1)c1ccccc1C(F)(F)F: 99.7%
Oc1ccc(Nc2nc(-c3ccc(Cl)cc3)cs2)cc1: 103%
Nc1nccc(-c2c(-c3ccc(F)cc3)ncn2C2CCNCC2)n1: 92.9%

Series 3 — cell line: A-375; concentration: 100 µM; time: 36 h; endpoint: viability
COc1ccccc1OCC(O)CO (centres unmarked): 92.5%
NCCCC(N)(C(=O)O)C(F)F (centres unmarked): 103%
COc1ccc(/C=C/C(=O)Nc2ccccc2C(=O)O)cc1OC: 60.2%
Cc1ccc(C(=O)c2cc(O)c(O)c([N+](=O)[O-])c2)cc1: 30.1%
Nc1cc(-c2ccncc2)c[nH]c1=O: 107%
O=C(O)Cc1ccc(-c2ccccc2)cc1: 94.1%
CN1[C@@H]2CC[C@H]1C[C@@H](OC(=O)c1c[nH]c3ccccc13)C2: 94.4%
CC1(C)O[C@@H]2C[C@H]3[C@@H]4CCC5=CC(=O)CC[C@]5(C)[C@@]4(F)[C@@H](O)C[C@]3(C)[C@]2(C(=O)CCl)O1: 77.4%
CN1CC(=O)N2[C@H](c3ccc4c(c3)OCO4)c3[nH]c4ccccc4c3C[C@@H]2C1=O: 90%
Cn1c(=O)cc(N2CCC[C@@H](N)C2)n(Cc2cc(F)ccc2C#N)c1=O: 118% and 108%
CC(C)(C)c1nc(-c2cccc(NS(=O)(=O)c3c(F)cccc3F)c2F)c(-c2ccnc(N)n2)s1: 47.9%

Series 4 — observed: enzyme activity; concentration: 5 µM; relative to: untreated control; endpoint: remaining activity
Compound: O=C(Nc1cnn(-c2csc(C(=O)NC3COC3)c2)c1)Nc1c(F)cccc1Cl
SLK (Homo sapiens, UniProt Q9H2G2): 94.6%
Cyclin-dependent kinase 2, with cyclin E2 (CDK2, Homo sapiens, UniProt P24941): 96.3%
MYLK4 (Homo sapiens, UniProt Q86YV6): 90.8%
NEK4 (Homo sapiens, UniProt P51957): 89.1%
CAMK2A (Homo sapiens, UniProt Q9UQM7): 98.5%
DSTYK (Homo sapiens, UniProt Q6XUX3): 94.9%
RAF1 (Homo sapiens, UniProt P04049): 88.1%
MAP2K4 (Homo sapiens, UniProt P45985): 128%
ALK (Homo sapiens, UniProt Q9UM73): 84.2%
FYN (Homo sapiens, UniProt P06241): 88.5%
MARK3 (Homo sapiens, UniProt P27448): 98.4%
MAP3K21 (Homo sapiens, UniProt Q5TCX8): 94.1%

Repeated from above (series 1):
CC(C)C[C@H](NC(=O)[C@H](Cc1ccccc1)NC(=O)c1cnccn1)B(O)O: -1%
CC1=C(C/C=C(\C)CCCC(C)CCCC(C)CCCC(C)C)C(=O)c2ccccc2C1=O (centres unmarked): 2%
COCC(=O)Nc1c(I)c(C(=O)NCC(O)CO)c(I)c(C(=O)N(C)CC(O)CO)c1I (mixture of isomers): -4%
NC(=O)N1c2ccccc2C=Cc2ccccc21: -5%
CCOC(=O)[C@H](CCc1ccccc1)N[C@@H](C)C(=O)N1Cc2ccccc2C[C@H]1C(=O)O: 13%
COc1cc(-c2coc3c([C@@H]4O[C@H](CO)[C@@H](O)[C@H](O)[C@H]4O)c(O)ccc3c2=O)ccc1O: 5%
